Results collected from several papers.
Protocols differ between the studies behind these lines. ± gives the spread as reported.

Cc1ccc(C2=Nn3c(N/N=C4/C(=O)Nc5ccc(Br)cc54)nnc3SC2)cc1  inhibition (UACC-257; cell growth or viability, SRB; 10 µM): 23%
CCCC[C@H](NC(=O)[C@H](Cc1ccccc1)NC(=O)[C@H](Cc1c[nH]cn1)NC(=O)CCNC(=O)[C@@H](NC(=O)[C@H](C)NC(=O)[C@H](Cc1c[nH]c2ccccc12)NC(=O)[C@H](CCC(N)=O)NC(=O)[C@H](N)Cc1ccc(O)cc1)C(C)C)C(N)=O  cell growth (Balb/3T3; MTT; 10 nM, 16 h): 90 ± 5%
C#CCOCCOCCOCCOCCn1cc(C(ONC(=O)/C=C/C(C)=C/C2(C)Oc3cc(N(C)C)ccc3C2=O)(c2ccc(C)cc2)c2ccc(C)cc2)nn1 (centres unmarked)  time to maximum BRET (MeT-5A; HDAC activity, inhibitor, BRET; IC50): 24 h
FC(F)(F)c1ccnc(-c2cc(C(F)(F)F)ccn2)c1.FC(F)(F)c1ccnc(-c2cc(C(F)(F)F)ccn2)c1.[Cl-].[Cl-].[Ru+2].c1csc(-c2ccc(-c3ccc(-c4nc5c6cccnc6c6ncccc6c5[nH]4)s3)s2)c1  EC50 (SK-MEL-28; cell viability, resazurin; visible light, hypoxia 1% O2): 300 to 870 nM
COc1cc(CNC(=O)C[C@H](C)CCC=C(C)C)ccc1O  growth percent (SK-MEL-5 melanoma cells; SRB; 10 µM, 48 h): 97.7%
CO[C@H]1N(OC)c2ccccc2[C@@]12CN=C(Nc1cc(C(F)(F)F)cc(C(F)(F)F)c1)S2 (relative stereo)  G0/G1 phase cells (HCT-116; PI flow cytometry; 40 µM, 72 h): 34.1 ± 9.89%
COc1cc(CNC(=O)C[C@H](C)CCC=C(C)C)ccc1OCc1cn(-c2ccccc2Cl)nn1  growth percent (CAKI-1; SRB; 10 µM, 48 h): 46.3%
CC/C=C\C/C=C\C/C=C\C/C=C\C/C=C\C/C=C\CCC(=O)Nc1ccn(C2OC(CO)C(O)C2(F)F)c(=O)n1 (centres unmarked)  GI50 (SK-MEL-5; cell growth or viability, SRB): 290 nM
O=C(CCCN1CCC(O)(c2ccc(Cl)cc2)CC1)c1ccc(F)cc1  minimum effective concentration (hiPSC cardiac tissues 3D; active force; 15 min per concentration, paced at 1 Hz serum-free): 0.3 µM
CC(=C(c1ccc(O)cc1)c1ccc(Cl)cc1)c1ccc(Cl)cc1  GI50 (TK-10; cell growth or viability): 2750 nM
CC(=O)OC[C@H]1O[C@@H](Sc2sc(C(=O)c3ccc(C)cc3)c(N)c2-c2nc3ccccc3s2)[C@H](OC(C)=O)[C@@H](OC(C)=O)[C@H]1OC(C)=O  growth (KM12; SRB; 10 µM, 48 h; baseline: untreated): 105%
N=C(N/N=C/c1ccc[nH]1)N/N=C/c1ccc[nH]1  selectivity ratio (PANC-1; crystal violet; 72 h; baseline: IC50 IMR-90 over IC50 PANC-1): 5.3
COc1cc(CNC(=O)C[C@H](C)CCC=C(C)C)ccc1OCc1cn(-c2ccccc2[N+](=O)[O-])nn1  growth percent (SK-OV-3 ovarian cancer cells; SRB; 10 µM, 48 h): 68.4%
O=Cc1c(O)ccc2ccccc12  log2 fold change (HUVEC; RNA sequencing, measured: THBD; 75 µM, 24 h; baseline: DMSO): 3.06
COc1cc(CNC(=O)C[C@H](C)CCC=C(C)C)ccc1OCc1cn(-c2ccc(Cl)c(Cl)c2)nn1  growth percent (NCI-H23; SRB; 10 µM, 48 h): 68.5%
COc1ccc(C=C2SC(N3N=C(c4cccs4)CC3c3ccc(F)cc3)=NC2=O)cc1 (centres unmarked)  cells in %G2/M phase (T47D; PI flow cytometry; concentration not given, 24 h): 3.43%
COc1cc(CNC(=O)C[C@H](C)CCC=C(C)C)ccc1OCc1cn(-c2ccc(Br)cc2)nn1  growth percent (CAKI-1; SRB; 10 µM, 48 h): 28.8%
COc1ccc(CN2C(=O)C(=O)c3cc(NC(C)=O)ccc32)cc1  Bcl-2/Bax ratio (K562; western blot; 1 to 10 µM, 24 h): decreased
CCc1cccc(CC)c1NC(=O)c1nn(C)c2c1CCc1cnc(Nc3ccc(N4CCN(C)CC4)cc3OC)nc1-2  concentration for checkpoint override (HeLa H2B-YFP; mitotic checkpoint, live cell imaging; with: nocodazole): 100 nM
COc1cc(CNC(=O)C[C@H](C)CCC=C(C)C)ccc1OCc1cn(-c2ccc(F)cc2)nn1  growth percent (SK-MEL-5 melanoma cells; SRB; 10 µM, 48 h): 65.2%
